Measured values gathered from unrelated publications.
Each line is one published result; not all experiments were run side by side. ± marks the error that the study gave.

CNS(=O)(=O)Nc1nccc(Cc2c(C)c3ccc(Oc4ncccc4F)cc3oc2=O)c1F
IC50 (Hs 700T; cell viability; 7 days): 475 nM

C[n+]1ccc(/C=N/NC(=O)c2ccc3ccc4ccc(C(=O)N/N=C/c5cc[n+](C)c6ccccc56)nc4c3n2)c2ccccc21
ΔTm (myc22 MYC G4-DNA parallel; FRET melting; 1 µM, K1 buffer, DNA 0.2 µM): 23.8 ± 0.5 °C

Cc1ncsc1-c1ccc(C(C)NC(=O)C2CC(O)CN2C(=O)C(NC(=O)CCCCCCCCCCN2CCCC(Nc3ncc(Cl)c(Nc4ccccc4S(=O)(=O)C(C)C)n3)C2)C(C)(C)C)cc1 (stereo not drawn)
log2 fold change (22Rv1; RNA-seq, item: PPWD1 mRNA; concentration not given; reference: DMSO): -1.79

Nc1ncc(-c2cc(-c3cnn(CC(F)(F)F)c3)ncc2F)nc1C(=O)NC1CNCC(F)C1 (stereo not drawn)
remaining binding (RIOK1; KINOMEscan; 1 µM; reference: DMSO control): 33%

O=C(N/N=C/c1cc[n+](Cc2ccccc2)c2ccccc12)N/N=C/c1cc[n+](Cc2ccccc2)c2ccccc12
ΔTm (myc22 MYC G4-DNA parallel; FRET melting; 1 µM, K1 buffer, DNA 0.2 µM): 8.6 ± 0.4 °C

CN1CCCNC(=O)c2cccc(c2)C(=O)NCCCN(C)CCCNc2cccc3c2C(=O)c2cccc(c2C3=O)NCCC1
log2 fold change (SAS; RNA-Seq, item: RPS6KB1 mRNA; 1 µM, 6 h; reference: untreated cells): -0.922

COC1CN([C@H]2CC[C@H]([C@@]3(C)Oc4c(Cl)cc(C(=O)NCc5c(SC)cc(C)[nH]c5=O)c(C)c4O3)CC2)C1
log2 fold change (RNA-seq, item: FRMD4B mouse homolog; mouse, HT-1376 xenograft, whole blood; dose not given; reference: vehicle): 0.953

C[n+]1ccc(/C=N/NC(=O)C(=O)N/N=C/c2cc[n+](C)cc2)cc1
ΔTm (myc22 MYC G4-DNA parallel; FRET melting; 1 µM, K1 buffer, DNA 0.2 µM, added: ds26 10 µM): 4.5 ± 0.5 °C

C=CC(=O)Nc1cccc(Cn2ncc3cnc(Nc4cnn(CCOC)c4)nc32)c1
percent of control (TNK2 human; binding, KINOMEscan; 100 nM; lower = stronger binding): 73%

Excerpt of the above:
Nc1ncc(-c2cc(-c3cnn(CC(F)(F)F)c3)ncc2F)nc1C(=O)NC1CNCC(F)C1 (stereo not drawn)
remaining binding (RIOK1; KINOMEscan; 1 µM; reference: DMSO control): 33%
